# Measurements gathered from unrelated publications.
# Each line is one published result; not all experiments were run side by side. “And” joins repeats or separate records; there may be more than shown. Numbers after ± are the reported error.
Compound,organism,test,system,setting,how to read,endpoint,value
CC(=O)c1cc(-c2ccsc2)ccc1OCCc1cccc(F)c1,Mycobacterium tuberculosis,,H37Rv-LP,,baseline: HepG2 CC50 over Mtb IC90,selectivity index,160
CC(c1cncnc1)n1c(=S)[nH]c2ccc(Cl)cc2c1=O (stereo not shown),Mycobacterium tuberculosis,,H37Rv,,,MIC90,≥ 100 µM
CCOC(=O)c1c(C)nc(NCCNc2ccnc3cc(Cl)ccc23)nc1-c1ccccc1,parainfluenza virus 3,viral replication,Vero,,,EC50,> 4 µM
Cc1nc(OCCc2cc(F)cc(F)c2)c(C(=O)NC2CCCC2)s1,Mycobacterium tuberculosis,growth,H37Rv-LP,120 h,,IC90,46 ± 35 µM
Nc1c(C(=O)N2CCOCC2)sc2nc(-c3ccc(F)cc3)ccc12,Mycobacterium tuberculosis,growth inhibition,H37Rv LepB under-expressing,,,IC50,21 ± 8 µM
Nc1ncnc2c1ncn2[C@@H]1O[C@H](CO)C[C@H]1O,human coronavirus 229E,,Huh-7,concentration not given,,virus titre,50000 TCID50/mL and 34100 TCID50/mL
CC(C)[C@H](NC(=O)c1ccccc1NC(=O)c1ccccn1)C(=O)N[C@H](CO)C(C)C,human coronavirus 229E,"viral replication, plaque reduction",MRC-5,6 days,,EC50,> 50 µM
NC(=O)c1cc2[nH]c(=S)n(Cc3cccnc3)c(=O)c2cc1Cl,Mycobacterium tuberculosis,,PptT conditional knockdown,,,MIC90,1.04 µM
CC(C)[C@H](NC(=O)[C@H](CCCNC(=N)N)NC(=O)N[C@@H](Cc1ccccc1)C(=O)O)C(=O)N[C@H](C=O)CCCNC(=N)N,human coronavirus 229E,viral replication,Huh-7,,,EC50,15.2 ± 0.6 µM
COc1ccc(-c2cc(C(F)(F)F)c3c(N)c(C(=O)N4CCCC4)sc3n2)cc1,Mycobacterium tuberculosis,,H37Rv wild type,120 h,,IC90,inactive
O=c1c2ccc(Cl)cc2[nH]c(=S)n1Cc1cccnc1,Mycobacterium tuberculosis,,PptT conditional knockdown,,,MIC90,> 100 µM
Nc1c(C(=O)N2CCOCC2)sc2nc(-c3ccccc3)ccc12,Mycobacterium tuberculosis,growth inhibition,H37Rv LepB under-expressing,,,IC50,14 ± 3 µM
OC(Cn1cncn1)(Cn1cncn1)c1ccc(F)cc1F,Saccharomyces cerevisiae,OD600,ΔPdr5 expressing Cdr1,10 µg/mL,baseline: no-drug control,relative growth,1.24% and 2.06% and 1.21%
COc1ccc2cc1Oc1ccc(cc1)C[C@H]1c3cc(c(OC)cc3CCN1C)Oc1c(OC)c(OC)cc3c1[C@H](C2)N(C)CC3,Influenza A virus,viral replication,"MDCK, A/HanFang/359/95 (H3N2)",48 h,,IC50,4.49 ± 0.84 µM
Cc1nc(NCCCCNc2ccnc3cc(Cl)ccc23)nc(-c2ccccc2[N+](=O)[O-])c1C(=O)OC(C)C,parainfluenza virus 3,viral replication,Vero,,,EC50,> 20 µM
NC(=O)c1cncc(Cn2c(=S)[nH]c3ccc(Cl)cc3c2=O)c1,Mycobacterium tuberculosis,,PptT conditional knockdown,,,MIC90,0.67 µM
CC(=O)c1ccc(OCCc2cccc(F)c2)c(C(N)=O)c1,Mycobacterium tuberculosis,,H37Rv-LP,,baseline: HepG2 CC50 over Mtb IC90,selectivity index,> 28
O=c1c2cc(Cl)ccc2[nH]c(=S)n1Cc1ccc(-c2ccccc2)nc1,Mycobacterium tuberculosis,,PptT conditional knockdown,,,MIC90,2.88 µM
COc1ccc(-c2cc(C(F)(F)F)c3c(N)c(C(=O)NC4CC5(C4)CN(C(=O)OC(C)(C)C)C5)sc3n2)cc1,Mycobacterium tuberculosis,,H37Rv wild type,,baseline: HepG2 IC50 over M. tuberculosis IC90,selectivity index,< 1
O=C(OCc1ccccc1)OCc1cc2[nH]c(=S)n(Cc3cccnc3)c(=O)c2cc1Cl,Mycobacterium tuberculosis,,H37Rv,,,MIC90,88.7 µM
CNC(=O)c1cc(C)ccc1OCCc1ccc(C2CC2)cc1,Mycobacterium tuberculosis,growth,H37Rv-LP,120 h,,IC90,0.09 ± 0.02 µM
CC(C)c1ccc(Cn2c(=S)[nH]c3ccc(Cl)cc3c2=O)cn1,Mycobacterium tuberculosis,,PptT conditional knockdown,,,MIC90,8.35 µM
Nc1c(C(=O)N2CCOCC2)sc2nc(Cl)ccc12,Mycobacterium tuberculosis,,H37Rv wild type,120 h,,IC90,inactive
NC(=O)c1cc(-c2cccs2)ccc1OCCc1cccc(F)c1,Mycobacterium tuberculosis,,H37Rv-LP,,baseline: HepG2 CC50 over Mtb IC90,selectivity index,65
Nc1c(C(=O)N2CCOCC2)sc2nc(-c3ccoc3)ccc12,Mycobacterium tuberculosis,growth inhibition,H37Rv LepB under-expressing,,,IC50,25 ± 10 µM
Cc1nc(OCCc2cc(F)cc(F)c2)c(C(=O)NC(C)C)s1,Mycobacterium tuberculosis,,H37Rv-LP,,baseline: HepG2 CC50 over Mtb IC90,selectivity index,0.2
Cc1cccc(NC(=O)c2sc3nc(-c4ccco4)cc(C(F)(F)F)c3c2N)c1C,Mycobacterium tuberculosis,growth inhibition,H37Rv LepB under-expressing,,,IC50,> 100 µM
NC(=O)c1nc(F)c[nH]c1=O,lymphocytic choriomeningitis virus,reporter gene,BHK-21,"100 µM, minigenome, Gaussia luciferase",baseline: DMSO,reporter activity,69.6%
CCOC(=O)C1=C[C@@H](OC(CC)CC)[C@H](NC(C)=O)[C@@H](N)C1,Influenza A virus,,"MDCK, A/WSN/1933 (H1N1)",,baseline: CC50 over EC50,selectivity index,> 46.1
COc1ccc(C[C@H]2NC[C@H](O)[C@H]2OC(C)=O)cc1,human coronavirus 229E,viral replication,luciferase reporter,,,IC50,0.016 µM
COc1nc(N)nc2c1ncn2[C@@H]1O[C@H](CO)[C@@H](O)[C@@H]1O,Influenza A virus H1N1,ELISA of viral NP,MDCK,50 µM,,anti-influenza activity,inactive
CC1(C)S[C@@H]2[C@H](NC(=O)[C@H](N)c3ccc(O)cc3)C(=O)N2[C@H]1C(=O)O,Burkholderia cepacia,,6349,,,MIC,> 256 µg/mL
COc1ccc(-c2cc(C(F)(F)F)c3c(N)c(C(=O)Nc4cccc(C)c4F)sc3n2)cc1,Mycobacterium tuberculosis,,H37Rv wild type,,baseline: HepG2 IC50 over M. tuberculosis IC90,selectivity index,< 1
NC(=O)c1cc(F)ccc1OCCc1cccc(F)c1,Mycobacterium tuberculosis,growth,H37Rv-LP,120 h,,IC90,68 ± 11 µM
CC(c1cccnc1)n1c(=S)[nH]c2ccc(Cl)cc2c1=O (stereo not shown),Mycobacterium tuberculosis,,"THP-1 macrophages, H37Rv-GFP",96 h,,IC80,> 30 µM
CNC(=O)c1cc(C(F)F)ccc1OCCc1cccc(F)c1,Mycobacterium tuberculosis,,H37Rv-LP,,baseline: HepG2 CC50 over Mtb IC90,selectivity index,30
CC(C)[C@H](NC(=O)c1ccccc1NC(=O)c1ccccc1)C(=O)N[C@H](CO)C(C)C,human coronavirus 229E,"viral replication, plaque reduction",MRC-5,6 days,,EC50,> 50 µM

# For quick reference, copied from above:
Compound,organism,test,system,setting,how to read,endpoint,value
CC(C)[C@H](NC(=O)c1ccccc1NC(=O)c1ccccn1)C(=O)N[C@H](CO)C(C)C,human coronavirus 229E,"viral replication, plaque reduction",MRC-5,6 days,,EC50,> 50 µM
Cc1cccc(NC(=O)c2sc3nc(-c4ccco4)cc(C(F)(F)F)c3c2N)c1C,Mycobacterium tuberculosis,growth inhibition,H37Rv LepB under-expressing,,,IC50,> 100 µM
Cc1nc(OCCc2cc(F)cc(F)c2)c(C(=O)NC(C)C)s1,Mycobacterium tuberculosis,,H37Rv-LP,,baseline: HepG2 CC50 over Mtb IC90,selectivity index,0.2
O=C(OCc1ccccc1)OCc1cc2[nH]c(=S)n(Cc3cccnc3)c(=O)c2cc1Cl,Mycobacterium tuberculosis,,H37Rv,,,MIC90,88.7 µM
Cc1nc(OCCc2cc(F)cc(F)c2)c(C(=O)NC2CCCC2)s1,Mycobacterium tuberculosis,growth,H37Rv-LP,120 h,,IC90,46 ± 35 µM
